Assay results pooled from the literature.
Lines come from different studies, so protocols differ. Values joined by “and” are separate records of one study, mostly repeats; a detail may differ. ± marks the error that the study gave.
DCAF1: DDB1- and CUL4-associated factor 1 (DCAF1, Homo sapiens, UniProt Q9Y4B6)
Nuclear receptor subfamily 2 group C member 2 ligand-binding domain: Nuclear receptor subfamily 2 group C member 2, ligand-binding domain (Homo sapiens, UniProt P49116)
Chain of UniProt P49116 (whole entry, looked up): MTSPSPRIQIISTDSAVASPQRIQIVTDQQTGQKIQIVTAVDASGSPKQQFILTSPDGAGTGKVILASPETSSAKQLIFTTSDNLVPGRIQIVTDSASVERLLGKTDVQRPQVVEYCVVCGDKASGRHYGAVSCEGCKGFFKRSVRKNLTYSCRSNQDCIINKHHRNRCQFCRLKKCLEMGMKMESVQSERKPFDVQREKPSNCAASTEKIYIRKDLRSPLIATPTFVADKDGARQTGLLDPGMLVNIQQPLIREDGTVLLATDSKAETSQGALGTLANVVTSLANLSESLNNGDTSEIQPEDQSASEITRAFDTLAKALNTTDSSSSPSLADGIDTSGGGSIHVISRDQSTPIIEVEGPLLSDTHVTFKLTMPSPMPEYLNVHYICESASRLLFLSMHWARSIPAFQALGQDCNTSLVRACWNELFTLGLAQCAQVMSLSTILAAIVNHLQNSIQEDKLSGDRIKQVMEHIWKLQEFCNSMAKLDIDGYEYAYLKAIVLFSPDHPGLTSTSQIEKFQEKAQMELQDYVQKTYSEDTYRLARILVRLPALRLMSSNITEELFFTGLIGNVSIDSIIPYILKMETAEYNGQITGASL
YTH domain-containing protein 1: YTH domain-containing protein 1 (Homo sapiens, UniProt Q96MU7)
XPO1: Exportin-1 (XPO1, Homo sapiens, UniProt O14980)
Chain of UniProt O14980 (whole entry, looked up): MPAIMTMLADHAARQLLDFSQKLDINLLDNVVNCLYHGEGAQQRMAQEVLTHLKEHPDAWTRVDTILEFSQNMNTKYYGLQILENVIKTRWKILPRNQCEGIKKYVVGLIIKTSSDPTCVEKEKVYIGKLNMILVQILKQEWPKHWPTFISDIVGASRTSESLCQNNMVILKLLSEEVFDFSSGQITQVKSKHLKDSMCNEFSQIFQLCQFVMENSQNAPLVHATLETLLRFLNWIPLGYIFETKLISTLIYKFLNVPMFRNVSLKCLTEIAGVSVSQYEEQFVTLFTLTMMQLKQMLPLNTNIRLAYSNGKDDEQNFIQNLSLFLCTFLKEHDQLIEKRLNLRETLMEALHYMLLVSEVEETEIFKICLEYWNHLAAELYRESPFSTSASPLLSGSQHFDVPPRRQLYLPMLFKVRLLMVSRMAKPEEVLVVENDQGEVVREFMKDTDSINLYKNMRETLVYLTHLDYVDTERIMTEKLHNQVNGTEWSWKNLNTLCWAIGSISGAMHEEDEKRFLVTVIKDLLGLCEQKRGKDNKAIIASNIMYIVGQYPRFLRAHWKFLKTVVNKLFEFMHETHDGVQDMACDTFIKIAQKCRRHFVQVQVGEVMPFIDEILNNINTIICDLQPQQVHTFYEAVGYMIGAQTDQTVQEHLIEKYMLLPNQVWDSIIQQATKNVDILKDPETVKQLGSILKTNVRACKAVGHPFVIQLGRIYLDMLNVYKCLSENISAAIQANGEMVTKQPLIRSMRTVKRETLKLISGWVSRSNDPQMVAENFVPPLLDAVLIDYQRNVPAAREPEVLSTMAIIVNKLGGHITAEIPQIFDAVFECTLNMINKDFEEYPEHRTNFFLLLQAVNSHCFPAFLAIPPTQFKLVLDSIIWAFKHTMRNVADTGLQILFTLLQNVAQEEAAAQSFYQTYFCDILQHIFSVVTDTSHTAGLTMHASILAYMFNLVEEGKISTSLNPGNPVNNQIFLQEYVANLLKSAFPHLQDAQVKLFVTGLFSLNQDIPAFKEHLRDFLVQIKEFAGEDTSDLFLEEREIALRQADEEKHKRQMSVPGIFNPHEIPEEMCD
Pancreatic alpha-amylase: Pancreatic alpha-amylase (Homo sapiens, UniProt P04746)
Chain of UniProt P04746 (whole entry, looked up): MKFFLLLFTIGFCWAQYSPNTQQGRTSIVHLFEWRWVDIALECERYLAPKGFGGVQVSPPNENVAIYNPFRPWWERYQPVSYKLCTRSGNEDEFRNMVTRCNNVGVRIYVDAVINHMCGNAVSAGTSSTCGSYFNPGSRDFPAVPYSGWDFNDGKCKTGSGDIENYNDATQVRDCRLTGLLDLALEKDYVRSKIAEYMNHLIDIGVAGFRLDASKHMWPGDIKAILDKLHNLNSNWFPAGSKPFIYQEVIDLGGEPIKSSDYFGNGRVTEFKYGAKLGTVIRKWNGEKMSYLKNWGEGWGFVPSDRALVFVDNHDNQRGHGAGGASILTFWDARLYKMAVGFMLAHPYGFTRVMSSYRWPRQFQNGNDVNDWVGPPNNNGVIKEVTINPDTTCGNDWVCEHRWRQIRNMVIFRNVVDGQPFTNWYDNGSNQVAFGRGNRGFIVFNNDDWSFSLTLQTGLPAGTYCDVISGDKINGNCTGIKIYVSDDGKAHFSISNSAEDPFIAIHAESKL
TOP2A: DNA topoisomerase 2-alpha (TOP2A, Homo sapiens, UniProt P11388)
Chain of UniProt Q16774 (whole entry, unmodified, looked up): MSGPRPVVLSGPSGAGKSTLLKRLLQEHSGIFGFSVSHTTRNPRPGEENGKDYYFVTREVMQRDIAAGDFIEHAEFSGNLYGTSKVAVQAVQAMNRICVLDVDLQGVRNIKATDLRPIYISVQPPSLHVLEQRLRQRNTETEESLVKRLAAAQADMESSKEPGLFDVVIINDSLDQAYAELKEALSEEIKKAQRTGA
Chain of UniProt P11388 (whole entry, looked up): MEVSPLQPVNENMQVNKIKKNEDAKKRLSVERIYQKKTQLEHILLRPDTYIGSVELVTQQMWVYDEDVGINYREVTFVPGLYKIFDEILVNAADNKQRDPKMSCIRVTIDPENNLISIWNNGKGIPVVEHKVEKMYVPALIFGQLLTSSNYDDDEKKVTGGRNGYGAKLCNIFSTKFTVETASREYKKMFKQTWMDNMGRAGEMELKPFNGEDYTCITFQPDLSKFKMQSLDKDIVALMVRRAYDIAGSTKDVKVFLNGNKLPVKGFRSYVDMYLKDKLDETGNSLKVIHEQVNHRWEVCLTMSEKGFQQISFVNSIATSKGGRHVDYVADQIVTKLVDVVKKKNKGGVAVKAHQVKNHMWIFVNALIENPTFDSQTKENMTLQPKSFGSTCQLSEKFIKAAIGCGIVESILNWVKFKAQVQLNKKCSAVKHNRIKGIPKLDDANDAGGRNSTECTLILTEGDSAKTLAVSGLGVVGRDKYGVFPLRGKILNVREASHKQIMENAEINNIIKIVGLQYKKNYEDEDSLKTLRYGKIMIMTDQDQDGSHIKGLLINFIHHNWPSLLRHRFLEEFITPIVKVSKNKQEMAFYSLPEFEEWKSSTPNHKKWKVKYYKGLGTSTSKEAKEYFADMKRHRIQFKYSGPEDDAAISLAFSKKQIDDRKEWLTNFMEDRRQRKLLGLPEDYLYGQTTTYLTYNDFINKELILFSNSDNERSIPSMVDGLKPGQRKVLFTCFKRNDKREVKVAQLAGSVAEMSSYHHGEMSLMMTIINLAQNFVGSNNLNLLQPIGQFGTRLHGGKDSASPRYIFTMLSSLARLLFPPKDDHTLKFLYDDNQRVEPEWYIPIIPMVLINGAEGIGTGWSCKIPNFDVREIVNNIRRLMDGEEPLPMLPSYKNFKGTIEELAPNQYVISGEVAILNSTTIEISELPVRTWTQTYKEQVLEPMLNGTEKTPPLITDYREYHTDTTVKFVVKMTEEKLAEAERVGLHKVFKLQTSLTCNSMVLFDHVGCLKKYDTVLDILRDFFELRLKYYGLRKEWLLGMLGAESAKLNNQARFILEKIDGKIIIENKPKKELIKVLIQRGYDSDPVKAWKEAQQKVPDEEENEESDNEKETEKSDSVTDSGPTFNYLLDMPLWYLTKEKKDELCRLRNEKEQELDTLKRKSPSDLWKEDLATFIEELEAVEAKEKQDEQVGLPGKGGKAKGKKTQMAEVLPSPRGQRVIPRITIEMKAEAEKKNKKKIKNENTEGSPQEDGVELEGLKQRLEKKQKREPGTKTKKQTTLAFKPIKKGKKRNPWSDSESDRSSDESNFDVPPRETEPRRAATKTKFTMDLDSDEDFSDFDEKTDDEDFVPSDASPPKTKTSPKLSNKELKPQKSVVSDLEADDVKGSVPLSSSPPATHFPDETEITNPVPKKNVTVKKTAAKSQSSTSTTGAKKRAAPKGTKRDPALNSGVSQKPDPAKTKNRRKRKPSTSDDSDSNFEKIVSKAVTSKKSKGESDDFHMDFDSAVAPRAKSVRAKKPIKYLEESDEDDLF
Chain of UniProt P27361 (whole entry, looked up): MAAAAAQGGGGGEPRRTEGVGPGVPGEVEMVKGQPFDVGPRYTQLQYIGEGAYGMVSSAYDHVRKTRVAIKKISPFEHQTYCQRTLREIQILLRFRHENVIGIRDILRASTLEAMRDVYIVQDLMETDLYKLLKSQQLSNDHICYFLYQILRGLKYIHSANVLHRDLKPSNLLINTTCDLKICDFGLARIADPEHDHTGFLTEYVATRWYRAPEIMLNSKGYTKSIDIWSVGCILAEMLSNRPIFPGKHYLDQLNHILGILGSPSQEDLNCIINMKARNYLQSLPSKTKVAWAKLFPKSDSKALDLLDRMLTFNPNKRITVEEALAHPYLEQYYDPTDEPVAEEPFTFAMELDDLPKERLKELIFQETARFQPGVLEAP
Chain of UniProt P51575 (whole entry, unmodified, looked up): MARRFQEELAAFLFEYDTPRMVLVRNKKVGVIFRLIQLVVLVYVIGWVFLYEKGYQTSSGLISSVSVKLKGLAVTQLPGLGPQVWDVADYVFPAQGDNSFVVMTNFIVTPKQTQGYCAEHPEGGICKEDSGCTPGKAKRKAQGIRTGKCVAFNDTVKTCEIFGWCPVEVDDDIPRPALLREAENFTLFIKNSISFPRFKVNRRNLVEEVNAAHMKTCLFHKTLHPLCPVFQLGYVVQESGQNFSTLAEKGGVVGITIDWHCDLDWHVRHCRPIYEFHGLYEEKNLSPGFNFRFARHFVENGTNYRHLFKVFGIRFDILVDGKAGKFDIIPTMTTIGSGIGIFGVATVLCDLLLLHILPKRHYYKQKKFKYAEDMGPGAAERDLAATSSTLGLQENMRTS
Chain of UniProt P12763 (whole entry, unmodified, looked up): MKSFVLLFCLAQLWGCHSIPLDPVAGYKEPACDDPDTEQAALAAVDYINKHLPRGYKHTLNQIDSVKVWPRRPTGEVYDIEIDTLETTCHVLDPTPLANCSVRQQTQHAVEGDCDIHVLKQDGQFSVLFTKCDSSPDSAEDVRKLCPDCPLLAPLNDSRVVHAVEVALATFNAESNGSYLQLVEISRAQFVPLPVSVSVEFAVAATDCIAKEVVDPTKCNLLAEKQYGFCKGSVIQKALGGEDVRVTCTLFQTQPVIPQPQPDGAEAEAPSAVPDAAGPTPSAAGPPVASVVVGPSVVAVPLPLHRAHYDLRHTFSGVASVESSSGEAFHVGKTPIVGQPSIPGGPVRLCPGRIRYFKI

Compound | target | test | system | setting | how to read | quantity | value
Cc1ccccc1C1CC(=O)c2c(C)nc(N)nc2C1 (stereo not drawn) | DCAF1 | binding, affinity selection mass spectrometry | – | – | reference: other proteins in batch | log fold enrichment | -0.0483
Nc1ncnc2c1ncn2[C@@H]1O[C@H](COP(=O)(O)OP(=O)(O)OP(=O)(O)O)[C@@H](O)[C@H]1O | ATP-sensitive inward rectifier potassium channel 1 (Rattus norvegicus, UniProt P35560) | inside-out patch clamp | renal principal cells, rat | 0.4 mM | – | mean open time | 25 ms
Nc1nc2c(ncn2[C@@H]2O[C@H](COP(=O)(O)O)[C@@H](O)[C@H]2O)c(=O)[nH]1 | GUK1 (Homo sapiens, UniProt Q16774) | enzyme activity, NADH-coupled | – | 31.25 µM | – | reaction rate | 41.1 s⁻¹ and 33.6 s⁻¹ and 39.4 s⁻¹
C=CC[C@@H]1/C=C(\C)C[C@H](C)C[C@H](OC)[C@H]2O[C@@](O)(C(=O)C(=O)N3CCCC[C@H]3C(=O)O[C@H](/C(C)=C/[C@@H]3CC[C@@H](O)[C@H](OC)C3)[C@H](C)[C@@H](O)CC1=O)[C@H](C)C[C@@H]2OC | Nuclear receptor subfamily 2 group C member 2 ligand-binding domain | SPR imaging | – | 600 nM | – | koff | 1.08e-06 s⁻¹
CC(C)C[C@@H]1NC(=O)[C@H](C)NC(=O)CNC(=O)[C@H](CC(N)=O)NC(=O)[C@@H]2CCCN2C(=O)[C@H](Cc2ccc(O)cc2)NC(=O)[C@H](CCCNC(=N)N)NC(=O)[C@H](Cc2ccccc2)NC(=O)[C@@H](NC(=O)[C@H](CCCCN)NC(=O)[C@@H]2CCCN2C(=O)[C@H](CO)NC(=O)[C@H](C)NC(=O)[C@@H](N)Cc2ccc(O)cc2)CSSC[C@@H](C(=O)N[C@H](C(N)=O)[C@@H](C)O)NC(=O)[C@H](C)NC1=O | Alpha-2-HS-glycoprotein, asialo (AHSG, Bos taurus, UniProt P12763) | binding, isothermal titration calorimetry | – | pH 7.0, 25 °C, with: asialofetuin | – | -ΔG | 22.8 kJ/mol
CC[C@@H]1[C@H](F)C(=O)N[C@@H]1COc1nccc2cc(C(N)=O)c(OC)cc12 | MARK2 (Homo sapiens, UniProt Q7KZI7) | ATP-site probe binding, ActivX profiling | THP-1 cell lysate | 0.2 mM, Lys2 site | – | inhibition | 4.2%
COc1cc(NC(=O)c2cscn2)ccc1/N=N/c1ccccc1Cl | GRM7 (Homo sapiens, UniProt Q14831) | positive allosteric modulator, IP accumulation | HEK293 | 30 µM, in the dark, with: low-dose orthosteric agonist | – | activation | 2.3%
CC(C)C[C@@H]1NC(=O)[C@H](C(C)C)NC(=O)[C@H](CCC(=O)O)NC(=O)[C@@H](NC(=O)[C@H](C)N)CSSC[C@@H](C(=O)N[C@@H](CO)C(=O)NCC(N)=O)NC(=O)CNC(=O)[C@H]([C@@H](C)O)NC(=O)[C@H](Cc2c[nH]c3ccccc23)NC(=O)[C@H](CC(=O)O)NC(=O)[C@H](Cc2ccc(O)cc2)NC(=O)[C@H](CO)NC1=O | ALDOA (Oryctolagus cuniculus, UniProt P00883) | surface plasmon resonance | – | pH 7.4, 25 °C, 2% DMSO, 0.005% Tween-20, 1:1 model | – | dissociation rate constant | 0.015 s⁻¹
Cc1ccc(N2CC(C(N)=O)CC2=O)cc1 (stereo not drawn) | YTH domain-containing protein 1 | binding, affinity selection mass spectrometry | – | – | reference: other proteins in batch | fold enrichment | 1
OC[C@H]1OC(O)[C@H](O)[C@@H](O)[C@@H]1O (stereo partly drawn) | Hexokinase-3 (HK3, Homo sapiens, UniProt P52790) | isothermal titration calorimetry | – | concentration not given, 25 °C | – | binding stoichiometry | 0.65 ± 0.01
Nc1ncnc2c1ncn2[C@@H]1O[C@H](COP(=O)(O)OP(=O)(O)OP(=O)(O)O)[C@@H](O)[C@H]1O | GUK1 (Homo sapiens, UniProt Q16774, S13A) | enzyme activity, substrate, NADH-coupled | – | – | – | kcat | 24.1 s⁻¹
NC(=O)c1cccnc1 | Nuclear receptor subfamily 2 group C member 2 ligand-binding domain | SPR imaging | – | 600 nM | – | koff | 4.59e-07 s⁻¹
COC1=NS(=O)(=O)c2ccccc21 | PKLR (Homo sapiens, UniProt P30613) | enzyme activity, activator | – | 10 µM | – | activity | inactive
C[C@H](N)C(=O)N[C@@H](CCCNC(=N)N)C(=O)N[C@H](C(=O)N[C@@H](CCCCN)C(=O)N[C@@H](CCC(N)=O)C(=O)N[C@H](C(=O)N[C@@H](C)C(=O)N[C@@H](CCCNC(=N)N)C(=O)N[C@@H](CCCCN)C(=O)N[C@@H](CO)C(=O)O)[C@@H](C)O)[C@@H](C)O | Transcriptional regulator ATRX (ATRX, Homo sapiens, UniProt P46100, F284Y/K251R) | isothermal titration calorimetry | – | concentration not given, pH 7.5, 25.0 °C | – | binding enthalpy | -20.5 kJ/mol
O=C(Nc1cccnn1)N1CCC(=Cc2cccc(Oc3ccc(C(F)(F)F)cn3)c2)CC1 | Faah (Mus musculus, UniProt O08914) | enzyme activity, inhibitor, ex vivo | rat, liver | oral, 8 h | – | ED50 | 2 mg/kg
CCNC(=O)/C=C/c1cccc(Br)c1 | SLC6A19 (Homo sapiens, UniProt Q695T7) | inhibitor, L-[14C]leucine uptake | CHO-BC cells | 1 µM, 6 min, unit not given, with: GPNA 3 mM, JPH203 3 µM | reference: uninhibited cells | remaining transport activity | 0.474
Cc1cccc(N2CC(C(=O)O)CC2=O)c1 (stereo not drawn) | DCAF1 | binding, affinity selection mass spectrometry | – | – | reference: other proteins in batch | log fold enrichment | -0.0479
NCCCC(=O)O | SLC6A6 (Homo sapiens, UniProt P31641, G62A) | binding, microscale thermophoresis | – | 7.81 µM, room temperature, with: 50 nM labelled protein | higher = more binding | normalised MST signal | -0.0351
O=C(COP(=O)(O)O)[C@@H](O)[C@H](O)[C@H](O)COP(=O)(O)O | XPO1 | thermal proteome profiling | HepG2 cell lysate | concentration not given, 57 over 37 °C, mean | reference: compound over control | thermal stability ratio | 0.589
NC/C(=C\F)COc1cccc(Cn2c(=S)[nH]c(=O)c3[nH]cnc32)c1 | Myeloperoxidase (MPO, Homo sapiens, UniProt P05164) | H2O2 consumption, inhibitor, H2O2 electrode | – | 0.25 µM, 0.2 s | – | H2O2 concentration | -0.329 µM
Cc1ccnc(OC[C@H]2CN(CC(=O)N3CCc4ccccc43)CCO2)c1 | HTR4 (Homo sapiens, UniProt Q13639) | radioligand binding | – | concentration not given | – | inhibition | -0.2%
N#Cc1cc(Nc2ncc3c(n2)CCCCC3=O)cs1 | G6PD (Homo sapiens, UniProt P11413) | inhibitor, LC-MS, refers to: 6-phosphogluconate production | – | concentration not given | – | enzyme activity | inhibited
O=C1OC(c2ccccc2)=N/C1=C\c1ccc(O)c(O)c1 | Pancreatic alpha-amylase | inhibitor, Lineweaver-Burk | – | 300 ppm, with: starch substrate | – | Vmax | 0.035 mg/mL/min

Compound | target | test | system | setting | how to read | quantity | value
CN1CCN(C2=Nc3ccccc3Oc3ccc(Cl)cc32)CC1 | Nuclear receptor subfamily 2 group C member 2 ligand-binding domain | SPR imaging | – | 600 nM | – | koff | 8.88e-07 s⁻¹
C=CC(=O)N1CCC(COCC(=O)N2CCN(c3nc(-c4cnc(N)nc4C(F)F)nc(N4CCOC[C@@H]4C)n3)CC2)CC1 | CILK1 (Homo sapiens, UniProt Q9UPZ9) | KINOMEscan | – | 1 µM | – | remaining binding | 75%
O=c1nc(SCc2cc(F)cc(C(F)(F)F)c2)nc(SCc2ccc3nc(Cl)ccc3c2)[nH]1 | TOP2A | ATPase activity | – | 125 µM, with: ATP 0.075 mM | – | ATP hydrolysis rate | 0.259 µM/min and 0.55 µM/min
CC(=O)c1ccc2cc(S(=O)(=O)Nc3ccc(Br)cc3)ccc2c1 | STAT3 (Homo sapiens, UniProt P40763) | tyrosine phosphorylation, inhibitor, ELISA, refers to: phospho-Tyr705 | – | – | – | log IC50 | 0.479
C[S+](CC[C@H](N)C(=O)O)C[C@H]1O[C@@H](n2cnc3c(N)ncnc32)[C@H](O)[C@@H]1O (stereo partly drawn) | O-methyltransferase (Sorghum bicolor, UniProt A0A1B6PFV1) | ITC | – | concentration not given, with: PTR+ | – | binding stoichiometry | 2.14 ± 0.922
Oc1ccc([C@@H]2c3c(O)cc(O)cc3[C@@H]3c4c(cc(O)c5c4[C@@H]2[C@H](c2ccc(O)cc2)[C@H]5c2cc(O)cc4c2[C@@H](c2cc(O)cc(O)c2)[C@H](c2ccc(O)cc2)O4)O[C@H]3c2ccc(O)cc2)cc1 | Pancreatic alpha-amylase | enzyme activity | – | 0.5 µM | – | Vmax | 1420 ± 86 µmol/min
CC[C@H](C)[C@@H]1NC(=O)[C@H]([C@@H](C)CC)NC(=O)[C@@H](Cc2ccc(O)cc2)NC(=O)CSC[C@@H](C(N)=O)NC(=O)[C@H](CCCNC(=N)N)NC(=O)[C@H](CCCCN)NC(=O)[C@H](CC(C)C)NC(=O)[C@H](CO)NC(=O)[C@H](CO)NC(=O)[C@H](CC(C)C)NC(=O)[C@H](Cc2ccccc2)NC(=O)[C@H](C(C)C)NC(=O)CNC(=O)[C@H](CC(C)C)NC(=O)[C@@H]2CCCN2C(=O)[C@H]([C@@H](C)O)NC(=O)[C@H](CC(=O)O)NC1=O | VPS35/VPS29 (Homo sapiens, UniProt Q96QK1+Q9UBQ0) | binding, ITC | – | 25 °C, heterodimer | – | -TΔS | 3.77 ± 1.26 kJ/mol
COc1ccc([C@H]2CNC(=O)C2)cc1OC1CCCC1 | Nuclear receptor subfamily 2 group C member 2 ligand-binding domain | SPR imaging | – | 600 nM | – | koff | 3.3e-08 s⁻¹
CC(Nc1nc(N2CCCC2)nc2ccccc12)c1ccccc1 (stereo not drawn) | XPO1 | nuclear export, high content imaging | HeLa Kyoto reporter | 0.03 µM, 2 h | – | cells with nuclear reporter | 6.02% and 3.29% and 2.74%
O=c1nc(SCc2ccc(C(F)(F)F)cc2)nc(SCc2csc3ccc(Cl)cc23)[nH]1 | TOP2A | DNA relaxation | – | 7.8 µM, replicate 2 | – | relaxed DNA | 35.4%
CC1=C(/C=C/C(C)=C/C=C/C(C)=C/C=O)C(C)(C)CCC1 | Rhodopsin (RHO, Bos taurus, UniProt P02699, L266T) | retinal entry, Trp FRET | lipid bicelles | 28 °C, L266T mutant | reference: wild-type rhodopsin | relative kon | 1.33 ± 0.22
c1coc(-c2n[nH]cc2-c2ccnc3ccccc23)c1 | Serine/threonine-protein kinase GIN4 (GIN4, Candida albicans, UniProt Q59W62) | kinase binding, MIB/MS competition | Candida albicans lysate | 1 µM | reference: DMSO, negative = stronger binding | log2 fold change | -0.32
CCS(=O)(=O)c1nc(C2CC2)cc(C(F)(F)F)n1 | XPO1 | nuclear export, high content imaging | HeLa Kyoto reporter | 0.0158 µM, 2 h | – | cells with nuclear reporter | 1.76% and 2.59% and 1.85%
c1ccc(-c2n[nH]cc2-c2ccnc3ccccc23)nc1 | Serine/threonine-protein kinase CBK1 (CBK1, Candida albicans, UniProt Q5AP53) | kinase binding, competitor, MIB/MS competition, refers to: CBK1 | Candida albicans cell lysate | 1 µM | reference: DMSO | log2 fold change | 1.35
CN1CC2c3ccccc3Oc3ccc(Cl)cc3C2C1 (stereo not drawn) | Nuclear receptor subfamily 2 group C member 2 ligand-binding domain | SPR imaging | – | 600 nM | – | koff | 1.21e-05 s⁻¹
CCCC[C@H]1CN(c2cccc(OC(F)(F)F)c2)C(=O)CN1Cc1cncn1Cc1cccc(C#N)c1 | Cryptococcus neoformans farnesyltransferase | enzyme activity, inhibitor, fluorescence | – | with: 1 µM FPP, 0.5 µM dansylated peptide | – | IC50 | 0.74 ± 0.31 µM
Nc1[nH]nc2nnc(-c3c(-c4ccccc4)nn4ccccc34)cc12 | MAPK3 (Homo sapiens, UniProt P27361) | ADP-Glo | – | 251 nM, with: MBP substrate | – | kinase activity | 70.2% and 43.1% and 95.3%
Nc1nc(O)c2ncn(COC(CO)CO)c2n1 | Nuclear receptor subfamily 2 group C member 2 ligand-binding domain | SPR imaging | – | 600 nM | – | koff | 1.23e-05 s⁻¹
CCN(CC)C(=S)S | PTPN22 (Homo sapiens, UniProt Q9Y2R2) | enzyme activity | – | concentration not given, with: DiFMUP | – | activity | inactive
Nc1ncnc2c1ncn2C(C=O)OC(C=O)CO (stereo not drawn) | SMN, human | inhibitor, co-immunoprecipitation, western blot, refers to: SMN-GFP-RMET interaction | HEK293T expressing GFP-RMET | 25 µM, 3 days | – | binding | decreased
O=C(O)[C@@H]1CCCN1c1ncnc2[nH]cnc12 (racemic) | YTH domain-containing protein 1 | binding, affinity selection mass spectrometry | – | – | reference: other proteins in batch | fold enrichment | 0.87
Nc1ncnc2c1ncn2[C@@H]1O[C@H](COP(=O)(O)CP(=O)(O)OP(=O)(O)O)[C@@H](O)[C@H]1O | P2X purinoceptor 1 (P2RX1, Homo sapiens, UniProt P51575, K140A) | calcium influx | – | 100 nM | reference: ionomycin response | calcium influx | 23.5% and 21.7% and 21% and 19.1%
